Assay results from different studies.
± marks the error that the study gave.
DRD2: D(2) dopamine receptor (DRD2, Homo sapiens, UniProt P14416)
Sequence of UniProt P14416 (whole entry, unmodified, looked up): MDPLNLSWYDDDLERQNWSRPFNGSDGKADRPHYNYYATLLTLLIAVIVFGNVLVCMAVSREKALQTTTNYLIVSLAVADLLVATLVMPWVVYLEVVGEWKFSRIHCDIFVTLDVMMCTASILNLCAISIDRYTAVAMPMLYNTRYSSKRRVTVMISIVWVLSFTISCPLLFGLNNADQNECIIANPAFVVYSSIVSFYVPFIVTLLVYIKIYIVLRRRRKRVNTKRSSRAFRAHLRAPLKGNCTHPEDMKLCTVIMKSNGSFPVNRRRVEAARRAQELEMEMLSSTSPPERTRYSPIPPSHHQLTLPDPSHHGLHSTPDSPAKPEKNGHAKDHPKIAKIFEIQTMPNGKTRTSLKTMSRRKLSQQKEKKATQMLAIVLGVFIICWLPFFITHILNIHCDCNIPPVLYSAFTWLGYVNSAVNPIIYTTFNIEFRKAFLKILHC
DRD2 F110L/V111M: D(2) dopamine receptor (DRD2, Homo sapiens, UniProt P14416, F110L/V111M)

COC(=O)c1ccc(NS(=O)(=O)c2c(C)[nH]c(C)c2C(=O)N2CCC(F)(F)C2)cc1Cl
IC50 (DRD2): > 100 µM

CC(C)Oc1cccnc1N(C)C1CCN(Cc2ccc(I)cc2)CC1
Ki (DRD2 F110L/V111M; binding; COS-7 membranes; mutant receptor, added: [3H]methylspiperone 0.5 nM): 0.0038 ± 0.00073 µM

Cc1[nH]c(C)c(S(=O)(=O)F)c1C(=O)N1CCC(F)(F)C1
IC50 (DRD2): > 100 µM

OC(c1ccc(F)cc1)C(F)(F)CCN1CCC(O)(c2ccc(Cl)cc2)CC1 (racemic)
Ki (DRD2): 5.47 ± 0.403 µM

C[C@H](N)Cn1ncc2ccc3c(c21)CCCO3
IC50 (DRD2; radioligand binding; added: [3H]spiperone): > 100 µM

COc1ncccc1-c1cnn2ccc(N3CCN(C(=O)OC(C)C)CC3)nc12
IC50 (DRD2; liability screen): > 30 µM

NCCc1cccc(O)c1
EC50 (DRD2): 0.1 µM

Clc1ccc(N2CCN(Cc3c[nH]c4ncccc34)CC2)cc1
Ki (DRD2 F110L/V111M; binding): 0.117 ± 0.095 µM

COc1cc(C(=O)N2CC[C@@H](O)[C@@H](N)C2)cc2nc(-c3cc4ccccc4n3CC3CC3)n(C)c12
IC50 (DRD2; antagonist, GTPγS LEADseeker): 25.1 µM

Cc1[nH]c(C)c(S(=O)(=O)Nc2ccc(S(=O)(=O)F)c(F)c2)c1C(=O)N1CCC(F)(F)C1
IC50 (DRD2): > 100 µM

Some of these lines once more:
Cc1[nH]c(C)c(S(=O)(=O)Nc2ccc(S(=O)(=O)F)c(F)c2)c1C(=O)N1CCC(F)(F)C1
IC50 (DRD2): > 100 µM
